# Assay results gathered from unrelated publications.
# Numbered parts are unrelated; each lists some results of a single study.

# Study 1 — method: RNAcompete; form: RNA; matrix: in vitro; concentration: 20 nM; setting: 7-mer, probes averaged, single round; relative to: mean of 7-mers; reading: higher = stronger binding
# Target: PABPC1L2, full length, GST fusion (mouse, UniProt A0ABA7IW68)
# Construct (chain): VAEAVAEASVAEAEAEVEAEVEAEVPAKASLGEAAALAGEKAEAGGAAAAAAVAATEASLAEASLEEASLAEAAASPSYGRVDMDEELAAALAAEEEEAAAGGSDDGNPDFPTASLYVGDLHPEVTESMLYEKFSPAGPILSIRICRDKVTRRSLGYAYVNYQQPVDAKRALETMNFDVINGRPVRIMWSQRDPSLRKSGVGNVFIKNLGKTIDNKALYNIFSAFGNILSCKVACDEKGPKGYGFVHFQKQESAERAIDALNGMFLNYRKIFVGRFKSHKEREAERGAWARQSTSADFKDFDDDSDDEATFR
Strand,7-mer Z-score
AAAAUCC,2.18
GCAGGUA,0.157
CUACGGU,-0.17
AGGCAAU,0.244
ACAUGCC,-0.139
UUACAUG,-0.0264
UGCGAAG,-0.142
CCAUUUA,0.289
UUUACGC,-0.161
AAACGUA,0.773
CCUCGAA,-0.173
GAGGCUA,0.171
AGCGACA,0.0533
GAUGGCC,-0.0826
GCACUCC,-0.228
AUUUCGA,-0.213
CCCAUGA,-0.277
CCUUGUU,-0.465
GACAAUA,0.3
GCCGCUU,-0.271
UGCCGAA,-0.0645

# Study 2 — method: RNA Bind-n-Seq; form: RNA; matrix: in vitro; concentration: 1 µM; setting: whole 134-nt RNA, ends assumed; with: 150 mM KCl; relative to: input library; reading: higher = stronger binding
# Target: Ras GTPase-activating protein-binding protein 1, RRM domain (G3BP1, Homo sapiens, UniProt Q13283)
# Chain of UniProt Q13283 (whole entry, looked up): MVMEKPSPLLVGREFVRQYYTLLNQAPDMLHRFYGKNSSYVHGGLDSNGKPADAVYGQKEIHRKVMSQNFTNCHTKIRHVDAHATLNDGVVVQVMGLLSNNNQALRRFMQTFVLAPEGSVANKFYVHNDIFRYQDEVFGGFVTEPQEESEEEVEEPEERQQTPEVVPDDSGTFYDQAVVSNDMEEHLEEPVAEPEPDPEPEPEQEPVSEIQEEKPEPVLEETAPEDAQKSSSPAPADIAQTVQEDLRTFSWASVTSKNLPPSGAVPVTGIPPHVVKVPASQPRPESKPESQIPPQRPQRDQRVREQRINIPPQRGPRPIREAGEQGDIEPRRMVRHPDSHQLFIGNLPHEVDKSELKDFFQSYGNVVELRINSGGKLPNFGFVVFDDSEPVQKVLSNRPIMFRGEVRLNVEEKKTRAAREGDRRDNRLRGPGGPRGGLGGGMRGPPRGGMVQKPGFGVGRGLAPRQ
# Shared flanks, not repeated: GGGAGUUCUACAGUCCGACGAUC … UGGAAUUCUCGGGUGUCAAGG
Strand,log2 enrichment
ACCAUGCAGGUGGGCAUCAUUGGGAAGUGGGGCAAGGGGGGGAUAGGGAGGGGGGUAACACUUUGGGAACAGGUGGUCCCAGGUCGUUUC,-0.401
CCUGUGCUACACAUCGUAUGUACCGAAUCGGAAAAAAAGGGAAAAAAAGGAAAAAAAGGGGAAAGUAUUAUGUUACGCCGUUCGGAUCUG,0.0349
AAGUCCUGUGCUACACAUCGUAUGUACCGAAUCGGGGUUUGGGGUGGGGUUUGGGGAAAGUAUUAUGUUACGCCGUUCGGAUCUGCACUU,0.542
CUGUGCUACACAUCGUAUGUACCGAAUCGGGCCCCCCCGGGGCCCCCCCGGGGCCCCCCCGGAAAGUAUUAUGUUACGCCGUUCGGAUCU,-0.493
CACAGACAACACGCACCCACACAGACACAGAGGGAAGGGGUUGGGAUGGGGACAGGGCGCACAGCAGGGCGGGGUAGGACCCCAGCCCCU,0.0231
UUGUGAUAGCCAAGUGGGACUACACCGCCCAGCAGGACCAGGAGCUGGACAUCAAGAAGAACGAGCGGCUGUGGUUGCUGGACGACUCCA,-0.288
GGAGGAAGUAAAAACAAAUGGAAAUGCUUCGGAUAGUGGCAGGGGUGGGGGUUGCUAAGGAAAGGGUGGGAUGGGAGUGGGUAAAGAGUU,1.21
AGUCCUGUGCUACACAUCGUAUGUACCGAAUCGGUUUUUUUGGUUUUUUUGGUUUGGAAAGUAUUAUGUUACGCCGUUCGGAUCUGCACU,-0.281
CUCAAGUCCUGUGCUACACAUCGUAUGUACCGAAUCGGGGCGGGGCGGGCGGGGAAAGUAUUAUGUUACGCCGUUCGGAUCUGCACUUCC,0.364
CCUGUGCUACACAUCGUAUGUACCGAAUCGGGGUUUGGGGAAAAAAAGGGGAAAAAGGGGAAAGUAUUAUGUUACGCCGUUCGGAUCUGC,0.775
UUAGGUGGCUCCAGGAUGUAUUUAACGUGCCCUUGGUCAUCCAGAUGACGGAUGACGAGAAGUAUCUGUGGAAGGACCUGACCCUGGACC,-0.403
UCAAGUCCUGUGCUACACAUCGUAUGUACCGAAUCGGAGGUUUGGUUUUUUUGGAAAGUAUUAUGUUACGCCGUUCGGAUCUGCACUUCC,-0.249
AAGUCCUGUGCUACACAUCGUAUGUACCGAAUCGGGAAAAAGGGAAAGGGUUUGGGAAAGUAUUAUGUUACGCCGUUCGGAUCUGCACUU,0.534
AAGUCCUGUGCUACACAUCGUAUGUACCGAAUCGGUUUUUUUGGAAAAAAAGGAGGAAAGUAUUAUGUUACGCCGUUCGGAUCUGCACUU,-0.333

# Study 3 — method: RNA Bind-n-Seq; form: RNA; matrix: in vitro; concentration: not given; relative to: input RNA pool; reading: higher = stronger binding
# Target: RING finger protein unkempt homolog, zinc fingers 1-6, GST-SBP tag (UNK, Homo sapiens, UniProt Q9C0B0, residues 30-357)
# Chain of UniProt Q9C0B0 (30-357, looked up): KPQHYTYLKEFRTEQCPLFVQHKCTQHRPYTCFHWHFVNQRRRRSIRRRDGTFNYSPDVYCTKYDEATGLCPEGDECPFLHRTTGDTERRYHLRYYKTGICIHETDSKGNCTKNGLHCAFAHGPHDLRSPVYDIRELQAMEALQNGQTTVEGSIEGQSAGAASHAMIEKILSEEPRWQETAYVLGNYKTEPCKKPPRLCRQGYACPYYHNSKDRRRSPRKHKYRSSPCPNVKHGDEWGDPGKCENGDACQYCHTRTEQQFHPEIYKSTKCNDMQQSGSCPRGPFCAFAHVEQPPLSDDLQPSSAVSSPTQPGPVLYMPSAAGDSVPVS
# Setting: RNA with constant flanks, human-mouse chimeric sites, ends assumed
# Shared flanks, not repeated: GGGAGUUCUACAGUCCGACGAUC … CAACAGAGGAUUGAGCAUCA
Strand,bound/input enrichment [ratio]
GAUCAUGAACCACCAUCCAGAAAUGAAAUGAGAUUACCCAGACGAGCCAAAACAGCUGCGCUACAGAAAAGUAAACUUAACCUUGCAGAGUUCCUUAAUGAAGAUACAAGUUAAGAGAGC,0.465
UAAGUUAAGCUUUUAAUCUUUGUAAAUUCUUAACAUUUUUAUAUUGCCAUGUUUAUUUUGUUUGGGUAAUUUGGUUCAUUAAGUACAAAACCAAAUAAAUGAACAUCUUUUUCAGUAAUU,0.772
UCCCAAAUCCAGCAGCUAGAAGGAGCCUUGAGACAAAGCCUGGAAAUACAGGGAAGGCGAUAACAUUGUACAUUGGUUUACAUUUUUUCCCCCUGUGGAUUUUUCUAUCCUAGUGCUUGC,0.267
GUUCGGCUCUGGGAUCAUGCCACAAUGACAGAAGUGAAAUCUCUGAAUUUUAAUAUGUCUGUUAGCAGUAUGGAAUAUAUUCCUGAGGGAGAGAUUUUGGUUAUUACUUAUGGACGAUCU,0.743
AGUGUGCAGGAAUUCAUGACCUUUACAAGUCAACUGAUUGUGGAGCGCUCGGGGAAAGGCAGCAGAGCUUCUGUCAAAGAACAAGAGUAUCUUUGCCAUGUCUACGUCCGGAGCGACAGU,0.134
GCAAAGGAUGAUGAGGCGGCAGCUGUUGCACUUUCCUCUCUCGUUCAUGCUUUGGAUGAGUUAAACAUGGUGGCCAUCGUCCGAUAUGCUUAUGACAAAAGAUCUAAUCCUCAAGUUGGU,0.115
AAAGAGAAAGCUAAAACACUAAUAGAGGAAGAGGAUUGCAAAGAGAAUUUCAUAGAGAAACUAGGAUUUAUUAGCAAACAUGAGUUAUAUUCCAGAGCGUCUCAGAAACCCCAGCCAAAC,6.38
GUAUACGGUUAUCGAGGAAAGGACUGUAGAGCGAAUGUAUACCUGCUUCCCACAGGGGAGAUAGUUUAUUUCAUUGCCUCAGUGGUAGUACUAUUUAAUUAUGAGGAGAGGACUCAGCGA,3.12
CUGGCACUCUAUCAGAUAUAUUAAUUUUUUAAUGUAGAUGUAAUUUUAAAAAUGAAUGGCUACUUUACACGUUUAACUAGGCUCUUACUAUAUAUGUGUACAUAUGUAUAUGUAUUUAUA,3.17
UUGAAAAACACAGAUAUCAAAGUUGUUGAUUUUGGAAGUGCAACGUAUGAUGAUGAACAUCACAGUACUUUGGUGUCUACCCGGCACUACAGAGCUCCCGAGGUCAUUUUGGCUUUAGGU,0.345
CUGUGUGUGCUGAAUAAAUGGCUUGUAAGAACUGUCCUCCAAGCUGUACCCAUGUACGUUAUUAUAGUUGCUGCAAAAUGUUCUUCCUGAUAUUGAUUUUAUUUGUUAACUGAAGGUCUC,0.798

# Study 4 — method: RNA Bind-n-Seq; form: RNA; matrix: in vitro; concentration: 365 nM; relative to: no-protein control; reading: higher = stronger binding
# Target: RNA binding protein fox-1 homolog 2, RRM domain, GST-SBP tag (RBFOX2, Homo sapiens, UniProt O43251-10, residues 100-194)
# Setting: natural RNA segment, single round, ends assumed
# Shared flanks, not repeated: GGGAGUUCUACAGUCCGACGAUC … UGGAAUUCUCGGGUGCCAA
# Construct (chain): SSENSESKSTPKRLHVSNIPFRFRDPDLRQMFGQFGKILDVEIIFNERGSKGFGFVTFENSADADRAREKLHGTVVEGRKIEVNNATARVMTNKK
Strand,RBNS enrichment (R)
UCCCAUAUUAAAGGAUCAUCAUCAUGGUUCUGCAGACACUCCGUGGCUCUGGGCGGUUCGUGCCCUUGCUAGCCACUACCCUUCAAUUCACCUGUGAUGCUAGCAUUAAU,0.507
UAGGGGUGGAUAGAGCUGGCUUUCCUUCUGGGCUGUCUCCAUCUGACCCUACCCCUUCCAUGUCCCACCCCACUCCCACCAAAAAGUACAAAAUCAGGAUGUUUUUCACU,0.334
CCUGUGUUACAAUUUUUCGUUUGGUCUUAGGUCUUCCCAUGGCUCCCUCUCUCCUGGACUGGUUAUCUUGUUAUUAUUGUUAAUAAUAAUUAUUAUUAUUAUUUCCCCCU,0.647
CCAUAUAAAACAUUUAAAUAAUGCAGGUUAUUAUGAGCAAGUUAGCUUUGAGAACCCUCCUUUUAGUAUAUGAAAAAGCCUAAUGCGCAUUCAUGAGGUUGGAGAGACUA,0.351
UACAUCUCCAUUACAAGUUGGAACUCAGUAGAAUCAAACCUUGUUACUUUAAGAUCUGUAGAAAUAAACCUAAGUUAAUUUUCCCCCAAAUCACGAGCAUCCGUGAUGGG,0.568
UCCCGCACCCCUAGGUUUGUAUUCUGGUUCUACUGGCUUUUCUCAGUGGGACACCAAGGUAGAAAGGGAGUAAGAAUGGUUUUCCAGUGAGUUGAAUGUGCACACGUUUA,1.96
GAUUUUUGAAUGUGAUUUUAAAGAGUGAAAAAUGAGACUAUGCGUUUUUAUAAAAAAUGGUGCCUGAUUCGGCUGUCUCAGACUCUUUUUGUACCUGGUGACCCCUUUUC,3.35
CAGGUGGCCCCAGUUCAAUCUCCCGCUGCUGCUGCUGCGCCCUUACCUUCCCCAGCGUCCCAGUCUCUGGCAGUUCUGGAAUGGAAGGGUUCUGGCUGCCCCAACCUGCU,0.253
GCACAUUUUCUUUUGUGCUUUUAAAUGUUUCUUAAGUUGGAACAGGUUUCCUCGGGCCUGUUUUGACUGAUUGCUGGAGUGCAUUUGAUAGUUAAAAAUUACUAAUUGGU,2.61
CAAGGUAGCCAGGCCAGCCAGGAGCGCGGGUCUUUGAGAGACUUCACCGGAAUCUUUCCCCCUUCGUGUGUUUAGUGGAAACAUCCCCCCUCCUAAACAAACUAACAAAA,0.444
UCCUCCCUGGGCCUGACAACGGGAGUGGUGGGUGGGUGAGAACAGGUUCUGAGAGGGGGCUUCUAGGAAGGCCCCAGCCCUAGUCCUAGGCGACUUGAAUAAAGUGGGAG,0.57
AUUUUCUUCAUGGGUUUAUGUUUUCGUUUCAUUUUGGACUCAAUUUCACAUCACCAAAUUCCUCAUUUAUACUUGGGGAAAAAACAAGGCCAUAUGUAAAAACCCUUCCA,0.322
